Assay results of several laboratories.
Several values in a cell are separate wells, animals, samples, runs or records. ± gives the spread as reported.
FURIN: Furin (FURIN, Homo sapiens, UniProt P09958)
HLA class I histocompatibility antigen, A alpha chain allele A*80:01: HLA class I histocompatibility antigen, A alpha chain, allele A*80:01 (Homo sapiens, UniProt P04439)
MCA2: Metacaspase-2 (MCA2, Trypanosoma brucei brucei, UniProt Q585F3)
PTPN1: Tyrosine-protein phosphatase non-receptor type 1 (PTPN1, Homo sapiens, UniProt P18031)

The chains behind the UniProt entries cited, without tags or fusion partners. Residues count along the entry.
UniProt P09958, whole entry, looked up: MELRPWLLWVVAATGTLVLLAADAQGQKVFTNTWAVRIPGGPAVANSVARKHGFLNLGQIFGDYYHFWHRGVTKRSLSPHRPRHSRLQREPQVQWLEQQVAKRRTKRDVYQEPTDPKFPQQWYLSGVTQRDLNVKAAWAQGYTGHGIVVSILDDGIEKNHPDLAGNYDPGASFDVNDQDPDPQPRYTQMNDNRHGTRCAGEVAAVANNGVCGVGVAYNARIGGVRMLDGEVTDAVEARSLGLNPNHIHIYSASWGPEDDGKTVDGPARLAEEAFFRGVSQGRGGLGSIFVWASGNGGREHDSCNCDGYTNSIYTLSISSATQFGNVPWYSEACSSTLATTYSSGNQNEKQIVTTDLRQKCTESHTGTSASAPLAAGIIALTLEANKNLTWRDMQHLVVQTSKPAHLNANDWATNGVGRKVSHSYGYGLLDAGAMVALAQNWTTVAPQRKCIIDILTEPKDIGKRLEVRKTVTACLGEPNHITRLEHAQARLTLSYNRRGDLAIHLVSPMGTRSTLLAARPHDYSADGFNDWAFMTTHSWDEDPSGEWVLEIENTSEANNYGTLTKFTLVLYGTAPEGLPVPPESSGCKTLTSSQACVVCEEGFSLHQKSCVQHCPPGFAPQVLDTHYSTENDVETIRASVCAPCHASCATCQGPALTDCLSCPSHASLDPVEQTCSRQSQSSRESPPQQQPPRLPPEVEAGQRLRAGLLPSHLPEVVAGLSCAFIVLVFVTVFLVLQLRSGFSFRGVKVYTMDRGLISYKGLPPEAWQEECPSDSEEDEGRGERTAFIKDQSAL
UniProt Q585F3, whole entry, looked up: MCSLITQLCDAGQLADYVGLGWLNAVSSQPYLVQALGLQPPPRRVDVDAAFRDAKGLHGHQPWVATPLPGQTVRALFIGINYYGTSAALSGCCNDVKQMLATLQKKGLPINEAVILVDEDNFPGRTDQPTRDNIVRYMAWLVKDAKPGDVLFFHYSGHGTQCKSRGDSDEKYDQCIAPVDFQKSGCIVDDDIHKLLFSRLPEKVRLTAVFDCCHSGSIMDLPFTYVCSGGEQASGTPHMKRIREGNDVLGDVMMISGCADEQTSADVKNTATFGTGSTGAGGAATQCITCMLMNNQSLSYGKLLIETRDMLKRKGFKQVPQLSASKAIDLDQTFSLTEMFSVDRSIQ
UniProt P18031, 1-321 limits assumed: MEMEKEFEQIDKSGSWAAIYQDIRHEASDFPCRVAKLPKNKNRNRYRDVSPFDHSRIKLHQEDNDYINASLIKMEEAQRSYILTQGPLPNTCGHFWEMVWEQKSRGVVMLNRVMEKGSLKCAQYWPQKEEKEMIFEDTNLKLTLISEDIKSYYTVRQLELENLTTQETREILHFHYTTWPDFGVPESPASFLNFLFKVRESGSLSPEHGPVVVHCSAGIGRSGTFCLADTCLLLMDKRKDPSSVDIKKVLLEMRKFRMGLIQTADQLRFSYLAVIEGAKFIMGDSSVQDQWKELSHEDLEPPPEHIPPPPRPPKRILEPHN
UniProt Q5JRX3, 29-1037 limits assumed: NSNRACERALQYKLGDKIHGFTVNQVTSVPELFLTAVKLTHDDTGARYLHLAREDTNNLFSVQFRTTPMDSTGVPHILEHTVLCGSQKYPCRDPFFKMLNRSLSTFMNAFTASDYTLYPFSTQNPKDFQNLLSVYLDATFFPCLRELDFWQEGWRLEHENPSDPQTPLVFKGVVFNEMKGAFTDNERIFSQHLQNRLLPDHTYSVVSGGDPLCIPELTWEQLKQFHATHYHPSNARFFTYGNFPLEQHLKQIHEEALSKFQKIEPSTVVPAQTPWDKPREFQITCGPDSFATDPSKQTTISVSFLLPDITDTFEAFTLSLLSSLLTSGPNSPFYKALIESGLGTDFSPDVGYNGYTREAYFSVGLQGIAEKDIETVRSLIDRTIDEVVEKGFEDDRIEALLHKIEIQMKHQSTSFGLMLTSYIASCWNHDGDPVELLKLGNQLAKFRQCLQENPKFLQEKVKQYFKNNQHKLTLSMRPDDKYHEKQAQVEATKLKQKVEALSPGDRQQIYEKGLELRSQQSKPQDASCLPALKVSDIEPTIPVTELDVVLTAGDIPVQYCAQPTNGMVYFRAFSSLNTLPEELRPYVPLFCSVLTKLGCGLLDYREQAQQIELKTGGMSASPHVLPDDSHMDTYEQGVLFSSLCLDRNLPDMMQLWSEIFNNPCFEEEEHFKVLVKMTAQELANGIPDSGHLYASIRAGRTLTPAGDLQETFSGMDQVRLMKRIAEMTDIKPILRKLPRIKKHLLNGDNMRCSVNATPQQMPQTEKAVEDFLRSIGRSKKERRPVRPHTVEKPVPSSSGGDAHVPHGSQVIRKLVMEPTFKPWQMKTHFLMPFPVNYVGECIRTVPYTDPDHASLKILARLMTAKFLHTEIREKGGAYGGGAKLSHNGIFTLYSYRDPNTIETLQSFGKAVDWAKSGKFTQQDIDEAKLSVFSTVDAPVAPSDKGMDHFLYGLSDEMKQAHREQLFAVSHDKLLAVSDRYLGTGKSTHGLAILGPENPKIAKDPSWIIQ

Compound	target	test	system	conditions	how to read	endpoint	value
CC(C)C[C@H](NC(=O)c1ccccc1N)C(=O)N[C@@H](CCCNC(=N)N)C(=O)N[C@@H](CCCNC(=N)N)C(=O)N[C@@H](CCCNC(=N)N)C(=O)N[C@@H](CCCNC(=N)N)C(=O)N[C@@H](CCCNC(=N)N)C(=O)N[C@@H](CC(=O)O)C(=O)N[C@@H](C)C(=O)NCC(=O)N[C@@H](CC(N)=O)C(=O)N[C@@H](CCC(N)=O)C(=O)NCCNc1ccc([N+](=O)[O-])cc1[N+](=O)[O-]	FURIN	substrate		pH 7		kcat	11.1 s⁻¹
CC[C@H](C)[C@H](NC(=O)[C@@H](NC(=O)[C@@H]1CCCN1C(=O)[C@@H](NC(=O)[C@@H](NC(=O)[C@@H]1CCCN1)C(C)C)[C@@H](C)O)C(C)C)C(=O)N1CCC[C@H]1C(=O)N[C@@H](CCCNC(=N)N)C(=O)N[C@H](C(=O)O)C(C)C	HLA class I histocompatibility antigen, A alpha chain allele A*80:01				direction not given	z-score	0.38
CC(=O)N[C@@H](C)C(=O)N[C@@H](Cc1c[nH]c2ccccc12)C(=O)N[C@@H](CO)C(=O)N[C@@H](Cc1ccc(OP(=O)(O)O)cc1)C(=O)N[C@@H](C)C(=O)N[C@@H](CC(=O)O)C(=O)N[C@@H](Cc1ccc(OP(=O)(O)O)cc1)C(=O)N[C@@H](C)C(=O)N[C@@H](C)C(N)=O	SHP-1 catalytic domain (ΔSH2)	phosphatase activity, substrate		pH 7.4		kcat/Km	0.58 µM⁻¹ s⁻¹
CC(C)[C@H](NC(=O)[C@H](CO)NC(=O)[C@H](CO)NC(=O)[C@H](CCCNC(=N)N)NC(=O)[C@H](C)NC(=O)[C@H](CCCCN)NC(=O)c1ccccc1N)C(=O)N[C@@H](CCC(N)=O)C(=O)NCCNc1ccc([N+](=O)[O-])cc1[N+](=O)[O-]	MCA2	enzyme activity, substrate, FRET hydrolysis	Trypanosoma brucei	pH 7.4		Km	1000 nM
CC[C@H](C)[C@H](NC(=O)[C@H](CC(C)C)NC(=O)[C@H](CCC(=O)O)NC(=O)[C@@H](N)CC(C)C)C(=O)NCC(=O)N[C@@H](CC(N)=O)C(=O)N[C@@H](C)C(=O)N[C@@H](CCC(=O)O)C(=O)N[C@@H](CO)C(=O)O	HLA class I histocompatibility antigen, A alpha chain allele A*80:01				direction not given	z-score	0.38
CC(C)C[C@H](NC(=O)[C@H](CCC(=O)O)NC(=O)[C@H](CCCNC(=N)N)NC(=O)[C@H](CCCCN)NC(=O)[C@H](CCCNC(=N)N)NC(=O)[C@H](CCCNC(=N)N)NC(=O)[C@H](CCCCN)NC(=O)[C@H](CCCNC(=N)N)NC(=O)c1ccccc1N)C(=O)N[C@@H](CCC(=O)O)C(=O)N[C@H](C(=O)N[C@@H](CCC(N)=O)C(=O)NCCNc1ccc([N+](=O)[O-])cc1[N+](=O)[O-])[C@@H](C)O	FURIN	substrate			baseline: with KCl over without KCl	kcat/Km ratio	58.8 and 59
CC[C@H](C)[C@H](NC(=O)[C@@H]1CCCN1C(=O)[C@H](Cc1ccccc1)NC(=O)[C@H](Cc1ccc(OP(=O)(O)O)cc1)NC(=O)[C@H](C)NC(C)=O)C(=O)N[C@@H](Cc1c[nH]c2ccccc12)C(=O)N[C@@H](Cc1ccc(OP(=O)(O)O)cc1)C(=O)N[C@@H](C)C(=O)N[C@@H](C)C(N)=O	PTPN1	substrate, continuous UV		pH 7.4		kcat/Km	5.9 µM⁻¹ s⁻¹
CC[C@H](C)[C@H](NC(=O)[C@H](CO)NC(=O)[C@H](Cc1ccc(O)cc1)NC(=O)[C@H](CCC(N)=O)NC(=O)[C@H](CC(C)C)NC(=O)[C@@H](N)Cc1ccc(O)cc1)C(=O)N[C@@H](CO)C(=O)N[C@H](C(=O)N[C@@H](C)C(=O)O)[C@@H](C)O	HLA class I histocompatibility antigen, A alpha chain allele A*80:01				direction not given	z-score	0.38
CC(C)C[C@H](NC(=O)CNC(=O)[C@H](CCCNC(=N)N)NC(=O)[C@H](CCCCN)NC(=O)[C@H](CCCCN)NC(=O)[C@H](CCCNC(=N)N)NC(=O)[C@H](CCCNC(=N)N)NC(=O)[C@H](CCCNC(=N)N)NC(=O)[C@H](CCC(=O)O)NC(=O)[C@H](CCCNC(=N)N)NC(=O)c1ccccc1N)C(=O)N[C@@H](Cc1ccccc1)C(=O)NCC(=O)N[C@@H](CCC(N)=O)C(=O)NCCNc1ccc([N+](=O)[O-])cc1[N+](=O)[O-]	FURIN	substrate		pH 7		kcat	1.9 s⁻¹
CC[C@H](C)[C@H](NC(=O)[C@H](Cc1ccc(O)cc1)NC(=O)[C@H](CCC(=O)O)NC(=O)[C@@H](NC(=O)[C@H](CCC(N)=O)NC(=O)[C@H](Cc1ccc(O)cc1)NC(=O)[C@H](CS)NC(=O)[C@@H](NC(=O)[C@@H](N)CC(C)C)[C@@H](C)CC)[C@@H](C)CC)C(=O)O	HLA class I histocompatibility antigen, A alpha chain allele A*80:01				direction not given	z-score	0.38
C[C@@H](O)[C@H](NC(=O)c1ccccc1N)C(=O)N[C@@H](Cc1c[nH]cn1)C(=O)N[C@@H](CCCNC(=N)N)C(=O)N[C@H](C(=O)N[C@@H](CCCNC(=N)N)C(=O)N[C@@H](CCCNC(=N)N)C(=O)N[C@@H](CO)C(=O)N[C@H](C(=O)N[C@@H](CO)C(=O)N[C@@H](CC(=O)O)C(=O)N[C@@H](CCC(N)=O)C(=O)NCCNc1ccc([N+](=O)[O-])cc1[N+](=O)[O-])[C@@H](C)O)[C@@H](C)O	FURIN	substrate		pH 7		kcat	8.5 s⁻¹
CC(C)[C@H](NC(=O)[C@H](CCCCN)NC(=O)[C@H](Cc1ccccc1)NC(=O)[C@H](CCC(N)=O)NC(=O)[C@H](CCCNC(=N)N)NC(=O)[C@H](CCCNC(=N)N)NC(=O)c1ccccc1N)C(=O)N[C@H](C(=O)N[C@H](C(=O)N[C@@H](CCCNC(=N)N)C(=O)N[C@@H](CO)C(=O)N[C@@H](CCC(N)=O)C(=O)NCCNc1ccc([N+](=O)[O-])cc1[N+](=O)[O-])[C@@H](C)O)C(C)C	Presequence protease, mitochondrial (Homo sapiens, UniProt Q5JRX3)	substrate		pH 7.5		Km	1070 nM
CC[C@H](C)[C@H](N)C(=O)N[C@@H](CO)C(=O)N[C@@H](CC(C)C)C(=O)N[C@@H](CCC(N)=O)C(=O)N[C@@H](CCC(=O)O)C(=O)N[C@H](C(=O)N[C@@H](Cc1ccccc1)C(=O)N[C@H](C(=O)N[C@@H](CCSC)C(=O)O)[C@@H](C)O)C(C)C	HLA class I histocompatibility antigen, A alpha chain allele A*80:01				direction not given	z-score	0.38
C[C@H](NC(=O)[C@H](CO)NC(=O)CNC(=O)[C@H](CCCNC(=N)N)NC(=O)[C@H](C)NC(=O)[C@H](CCCCN)NC(=O)c1ccccc1N)C(=O)N[C@@H](CCC(N)=O)C(=O)NCCNc1ccc([N+](=O)[O-])cc1[N+](=O)[O-]	MCA2	enzyme activity, substrate, FRET hydrolysis	Trypanosoma brucei	pH 7.4		Km	2200 nM
CC(=O)N[C@@H](C)C(=O)N[C@@H](Cc1ccc(OP(=O)(O)O)cc1)C(=O)N[C@@H](Cc1ccc(OP(=O)(O)O)cc1)C(=O)N[C@@H](Cc1c[nH]c2ccccc12)C(=O)N[C@H](C(=O)N[C@@H](C)C(=O)N[C@@H](Cc1ccc(OP(=O)(O)O)cc1)C(=O)N[C@@H](C)C(=O)N[C@@H](C)C(N)=O)[C@@H](C)O	PTPN1	substrate, continuous UV		pH 7.4		kcat/Km	15.1 µM⁻¹ s⁻¹
CC[C@H](C)[C@H](NC(=O)[C@H](CCCNC(=N)N)NC(=O)[C@H](CCCCN)NC(=O)[C@H](CCCNC(=N)N)NC(=O)[C@H](C)NC(C)=O)C(=O)N[C@@H](Cc1ccc(OP(=O)(O)O)cc1)C(=O)N[C@@H](C)C(=O)N[C@@H](C)C(N)=O	PTPN1	substrate		pH 7.4, catalytic domain		kcat	41 ± 1 s⁻¹

A few entries again:
Compound	target	test	system	conditions	how to read	endpoint	value
CC(=O)N[C@@H](C)C(=O)N[C@@H](Cc1c[nH]c2ccccc12)C(=O)N[C@@H](CO)C(=O)N[C@@H](Cc1ccc(OP(=O)(O)O)cc1)C(=O)N[C@@H](C)C(=O)N[C@@H](CC(=O)O)C(=O)N[C@@H](Cc1ccc(OP(=O)(O)O)cc1)C(=O)N[C@@H](C)C(=O)N[C@@H](C)C(N)=O	SHP-1 catalytic domain (ΔSH2)	phosphatase activity, substrate		pH 7.4		kcat/Km	0.58 µM⁻¹ s⁻¹
